Measured values pooled from the literature.
Lines come from different studies, so protocols differ. Several values in a cell are separate wells, animals, samples, runs or records. ± gives the spread as reported. Converted amounts (≈) assume the structure as drawn.

[123I]c1ccc2nc(-c3ccc(-n4ccnn4)nc3)cn2c1
tracer uptake (male Wistar rat, stomach; intravenous, 4 MBq, 30 min): 0.802 %ID/g

COc1cccc(OC)c1-c1cc(C(=O)NC2(C(=O)O)C3CC4CC(C3)CC2C4)nn1-c1ccc(C(=O)N(C)CCOCCN(C)C(=O)[C@H](CCCCNC(=O)[C@H](CC(C)C)NC(=O)C2OC2C(=O)O)NC(=O)CN2CCN(CC(=O)[O-])CCN(CC(=O)[O-])CCN(CC(=O)[O-])CC2)cc1C(C)C.[177Lu+3] (mixture of isomers)
tissue uptake (mouse, HT-29 xenograft, liver; 24 h post injection): 0.9 %ID/g

CCCCN1C(=O)c2cccc3c(NCCCCCCCCN4CCOCC4)ccc(c23)C1=O
emission maximum (water; pH 6.0): 559 nm

COc1ccc(CNc2nc([C@H]3CC[C@H](C(=O)O)CC3)nc3sc4ccccc4c23)cc1Cl
body weight (NSG mice; dose not given, day 2): 22.1 g and 18.9 g and 21.4 g and 22.8 g

CCCCN1C(=O)c2cccc3c(NCCCN4CCOCC4)ccc(c23)C1=O
emission maximum (toluene): 494 nm

O=C(O)CCCOc1ccc([18F])cc1-c1cc(-c2ccccc2C(F)(F)F)n(-c2ccccc2)n1
tissue uptake (mouse, large intestine; intravenous, dose not given, 360 min): 6.36 ± 1.43 %ID/g

Cc1nn(-c2nc3c(F)cc(F)cc3s2)c(O)c1C(c1ccc(C(F)(F)F)cc1)c1c(C)nn(-c2nc3c(F)cc(F)cc3s2)c1O
plasma concentration (ICR mouse; intravenous, 5 mg/kg, 2.00 h): 5730 ng/mL and 4510 ng/mL and 6710 ng/mL

CN(O)C(=O)CCC(=O)NCCCN(CCCCN(CCCNC(=O)CCC(=O)N(C)O)C(=O)CCC(=O)N(C)O)C(=O)CCC(=O)N(C)O.[89Zr]
intact complex (human plasma; 3 d, 37 °C): 100%

COCC1CN(C2CCN(c3cc(OC)c(Nc4ncc(Br)c(Nc5ccc6c(c5P(C)(C)=O)OCCO6)n4)cc3C)CC2)C1
patients with adverse events (EGFR-mutant NSCLC patients; oral, 90 mg once daily): 100%

CCC(CC)CNC(=N)NC(=N)NCCCCCCNC(=N)NC(=N)NCC(CC)CC
scaled CLint (metabolic stability; monkey, hepatocytes; 1 µM): 29.6 mL/min/kg

CC[C@H](C)[C@@H]1NC(=O)[C@H](Cc2ccc(O)cc2)NC(=O)CCCSC[C@@H](C(=O)N(CC(=O)N[C@@H](CC(C)C)C(=O)NCC(N)=O)Cc2ccc(F)cc2)NC(=O)[C@H](CC(N)=O)NC(=O)[C@H](CCC(N)=O)NC1=O
adverse drug reactions (human; intranasal, 200 µg single dose): 67%

CC(C)(O)c1ncc([S@](N)(=O)=NC(=O)Nc2c3c(cc4c2CCC4)CCC3)s1
subjects with TEAEs (item: musculoskeletal-connective tissue disorders; healthy human volunteers; oral, 30 mg single dose, crystalline suspension): 17%

N#Cc1ccnc(N2Cc3cn(Cc4ccc(F)cc4)nc3C2)n1
half-life (metabolic stability; rat, liver microsomes): 0.0283 h

COC(=O)c1c(CCl)cc(O)c(=O)c(O)c1C(=O)OC
CC50 (HepDES19; cell growth or viability, MTS; 72 h): 72.4 µM

CN1CCN(c2ccc(/C=C/c3cc(=O)cc(/C=C/c4ccc(N5CCN(C)CC5)cc4)o3)cc2)CC1
emission maximum (acetonitrile; 10 µM, 298 K): 565 nm

Cc1nc(N)nc2c1C(=O)N[C@@H](c1ccc(F)cc1-c1cccc(O[11CH3])n1)C2
tracer uptake (ex vivo biodistribution; mice, MDA-MB-231 subcutaneous xenograft, kidneys; 60 min post-injection, baseline, vehicle pre-treatment): 2.7 ± 0.4 %ID

O=C(Nc1cnccc1-c1ccc([18F])cc1)c1ccnc(NC(=O)C2CC2)c1
SUV (ex vivo gamma counting; GSK-3β transgenic mice, late-stage, feces; intravenous, 120 min, mean, no P-gp inhibitor): 6.17

Cc1[nH]c(=O)c(CNC(=O)c2cc(Cl)c3c(c2C)O[C@@](C)([C@H]2CC[C@H](N(C)C)CC2)O3)c(C)c1O
excretion (healthy men, feces; oral, 200 mg [14C]-valemetostat; reference: dose): 5.61%

O=C(NC1CCCCC1)c1cccc(N2Cc3cn(Cc4ccc(F)cc4)nc3C2)c1
half-life (metabolic stability; rat, liver microsomes): 5.15 h

CC(C)C[C@@H](NC(=O)[C@H](NC(=O)[C@H]1CCCN1)[C@H](C)O)C(=O)N[C@H](Cc1c[nH]cn1)C(=O)N[C@@H](C(=O)N[C@H](Cc1c[nH]cn1)C(=O)N[C@H](CC(N)=O)C(=O)N[C@H](CCCNC(=N)N)C(=O)N[C@H](CCCNC(=N)N)C(=O)N[C@H](CCCNC(=N)N)C(=O)N[C@H](CCCNC(=N)N)C(=O)N[C@H](CCCNC(=N)N)C(N)=O)[C@H](C)O
triglycerides (Beagle dog, blood; oral, 30 mg/kg daily, 3 months): 2.6 mmol/L

COc1cccc(OC)c1-c1cc(C(=O)NC2(C(=O)O)C3CC4CC(C3)CC2C4)nn1-c1ccc(C(=O)N(C)CCCN(C)CCCN(C)C(=O)[C@H](CCCCNC(=O)[C@H](CC(C)C)NC(=O)C2OC2C(=O)O)NC(=O)CN2CCN(CC(=O)[O-])CCN(CC(=O)[O-])CCN(CC(=O)[O-])CC2)cc1C(C)C.[177Lu+3] (mixture of isomers)
tumour-to-spleen ratio (mouse HT-29 xenograft; 4 h, biodistribution; reference: tumour over spleen): 15.9

C/C(N)=N/C(=N\S(=O)(=O)c1ccc(C(F)(F)F)cc1)N1C[C@H](c2ccccc2)C(c2ccc(Cl)cc2)=N1
Cmax (beagle dog, plasma; oral, 18 mg/kg): 1520 ng/mL

CCCCN1C(=O)c2cccc3c(NCCN4CCOCC4)ccc(c23)C1=O
emission maximum (dichloromethane): 505 nm

CCCCCCCC/C=C/CCCCCCCC(=O)[O][Pt-2]1([OH])([Cl])([NH+]=C(CC)N(C)CCNc2c3ccccc3[nH+]c3ccccc23)[NH2+]CCC[NH2+]1.O=[N+]([O-])[O-].O=[N+]([O-])[O-]
critical micelle concentration (water): 1.1 µM

Cc1ccc(CN2C(=O)/C(=N\c3ccc(Cl)cc3Br)c3ccccc32)cc1
MCH (mouse, blood; 150 mg/kg): 14.8 ± 0.18 pg

CC[C@H](C)[C@H](NC(=O)[C@H](CC(=O)O)NC(C)=O)C(=O)N[C@@H](Cc1ccccc1)C(=O)N[C@@H](Cc1ccccc1)C(=O)N[C@@H](CCCNC(=N)N)C(=O)N[C@@H](Cc1ccc(O)cc1)C(=O)N[C@@H](CC(N)=O)C(=O)NCC(=O)N[C@@H](CCCCN)C(=O)N[C@H](C(=O)N[C@@H](Cc1c[nH]c2ccccc12)C(=O)N[C@@H](Cc1c[nH]c2ccccc12)C(=O)N[C@@H](CCCNC(=N)N)C(=O)O)C(C)C
β-strand content (circular dichroism; free peptide in solution; concentration not given, 25 °C, no insulin present): 40.3%

C=CC(=O)Nc1cc(Nc2nccc(-c3c[nH]c4ccccc34)n2)c(OC)cc1N(C)CCN(C)C
recovery (storage stability; human dried blood spots; 5 h, on ice, low QC level): 94.5%

O=C(c1ccccc1)N1C(c2ccc(OCC3CCN(CCCF)C3)cc2)c2ccc(O)cc2CC12CC2 (centres unmarked)
Cmax (C57BL/6J mouse, plasma; intraperitoneal, 25 mg/kg): 4420 ng/mL

COC1CN([C@H]2CC[C@H]([C@@]3(C)Oc4c(Cl)cc(C(=O)NCc5c(SC)cc(C)[nH]c5=O)c(C)c4O3)CC2)C1
log2 fold change (RNA-seq, item: MECOM; human, whole blood; dose not given, 24 h; reference: pretreatment baseline): 7.09

C=C(NC(=O)c1csc(-c2nc3c(cc2O)-c2nc(cs2)C(=O)NC(C(C)O)C(=O)NC(=C(C)OC)c2nc(cs2)C(=O)NC2c4nc(cs4)C(=O)NC(COC(=O)c4c5c6c(cccc6n4O)COC(=O)C(OC4CC(C)(O)C(N(C)C)C(C)O4)C2OC5)c2nc-3cs2)n1)C(N)=O (centres unmarked)
MRT(0-t) (ICR mice, Streptococcus pneumoniae ATCC 49169 infected, immunocompromised, blood; intravenous, 2 mg/kg/day three times daily): 7.54 h

COc1cc2ncnc(Oc3ccc(Nc4nccc5[nH]cc(-c6ccc(F)cc6)c(=O)c45)cc3F)c2cc1OC
AUC(0-t) (male cynomolgus monkey, plasma; oral, 3 mg/kg): 24500 ng·h/mL

O=S1(=O)CC2CCCCC2CS1 (centres unmarked)
solubility (phase solubility, NMR; water; 25 °C, added: hydroxypropyl-β-cyclodextrin 1036 mM): 118 mM (≈ 24.3 mg/mL)

O=C(NS(=O)(=O)c1cccs1)c1cc2ccccc2n1Cc1ccc(Br)c2ccccc12
body weight (KM mouse, chronic hyperuricaemia model; dose not given, day 27): 36.5 g and 40.7 g and 37.8 g and 38.2 g and 39 g and 38.4 g

CCCCN1C(=O)c2cccc3c(NCCCCN4CCOCC4)ccc(c23)C1=O
emission maximum (DMSO): 532 nm

CCC1CNC(CC)CN(C(C(=O)[O-])c2ccc(C(=O)[O-])cc2)C(CC)CN(CC(=O)[O-])C(CC)CN1.[Mn+2] (centres unmarked)
Mn content (ICP-MS; BALB/c mouse, kidney; intravenous, 0.05 mmol/kg, 1440 min, without anaesthesia): 1.85 ± 0.2 µg/g

CS(=O)(=O)c1cc(Cl)cc(-c2cc(Cl)c(Cl)cc2Cl)c1Cl
dose fraction in skim milk (whole cow milk; 20 nM nominal): 7.63%

CCCCN1C(=O)c2cccc3c(NCCCCCCCCCCN4CCOCC4)ccc(c23)C1=O
emission maximum (dichloromethane): 516 nm

COc1cccc(OC)c1-c1cc(C(=O)NC2(C(=O)O)C3CC4CC(C3)CC2C4)nn1-c1ccc(C(=O)N(C)CCCN(C)C(=O)[C@H](CCCCNC(=O)[C@H](CC(C)C)NC(=O)C2OC2C(=O)O)NC(=O)CN2CCN(CC(=O)[O-])CCN(CC(=O)[O-])CCN(CC(=O)[O-])CC2)cc1C(C)C.[177Lu+3] (mixture of isomers)
tumour-to-pancreas ratio (mouse HT-29 xenograft; 24 h, biodistribution; reference: tumour over pancreas): 22.3

N#C[C@@H]1CC(F)(F)CN1C(=O)CNC(=O)c1ccnc2c(NC(=O)[C@@H](N)CCCCNC(=O)CCOCCOCCOCCOCCOCCOCCNC(=O)CN3CCN(CC(=O)[O-])CCN(CC(=O)[O-])CCN(CC(=O)[O-])CC3)cccc12.[177Lu+3]
tissue uptake (mouse, U-87 MG tumour xenograft, kidneys; 48 h): 1.48 ± 0.26 %ID/g

CCCCN1C(=O)c2cccc3c(NCCCCCCN4CCOCC4)ccc(c23)C1=O
emission maximum (ethylene glycol): 543 nm

COc1ccc(Nc2nc(Nc3ccc(OCCOCCOCC[18F])cc3)ncc2Br)cc1
tissue uptake (ICR mice, S180 tumour-bearing, heart; intravenous, 370 kBq, 60 min): 1.63 ± 0.09 %ID/g

O=C1OCc2cc(O)c(=O)c(O)c(O)c21
CC50 (HepDES19; cell growth or viability, MTS; 72 h): 36.3 µM

Cc1cnc2nc1Nc1cccc(c1)COC/C=C/COCc1cc(ccc1OCCN1CCOCC1)N2
body weight (BALB/c mice, rhEPO-induced polycythemia; 75 mg/kg, day 0): 18.3 g and 19.7 g and 18.2 g and 19.4 g and 18 g and 17.4 g

C=C[C@]1(C)C[C@@H](OC(=O)CSc2ccc(NC(=O)c3ccco3)cc2)[C@]2(C)[C@H](C)CC[C@]3(CCC(=O)[C@H]32)[C@@H](C)[C@@H]1O
apparent volume of distribution (M. gallisepticum-infected chickens, plasma; intramuscular, 80 mg/kg single dose): 9.9 L/kg
